# Assay results of several laboratories.
# Lines come from different studies, so protocols differ. “And” joins repeats or separate records; there may be more than shown. Numbers after ± are the reported error.
# B1: DDX21; sequence looked up; chain MPGKLRSDAGLESDTAMKKGETLRKQTEEKEKKEKPKSDKTEEIAEEEETVFPKAKQVKKKAEPSEVDMNSPKSKKAKKKEEPSQNDISPKTKSLRKKKEPIEKKVVSSKTKKVTKNEEPSEEEIDAPKPKKMKKEKEMNGETREKSPKLKNGFPHPEPDCNPSEAASEESNSEIEQEIPVEQKEGAFSNFPISEETIKLLKGRGVTFLFPIQAKTFHHVYSGKDLIAQARTGTGKTFSFAIPLIEKLHGELQDRKRGRAPQVLVLAPTRELANQVSKDFSDITKKLSVACFYGGTPYGGQFERMRNGIDILVGTPGRIKDHIQNGKLDLTKLKHVVLDEVDQMLDMGFADQVEEILSVAYKKDSEDNPQTLLFSATCPHWVFNVAKKYMKSTYEQVDLIGKKTQKTAITVEHLAIKCHWTQRAAVIGDVIRVYSGHQGRTIIFCETKKEAQELSQNSAIKQDAQSLHGDIPQKQREITLKGFRNGSFGVLVATNVAARGLDIPEVDLVIQSSPPKDVESYIHRSGRTGRAGRTGVCICFYQHKEEYQLVQVEQKAGIKFKRIGVPSATEIIKASSKDAIRLLDSVPPTAISHFKQSAEKLIEEKGAVEALAAALAHISGATSVDQRSLINSNVGFVTMILQCSIEMPNISYAWKELKEQLGEEIDSKVKGMVFLKGKLGVCFDVPTASVTEIQEKWHDSRRWQLSVATEQPELEGPREGYGGFRGQREGSRGFRGQRDGNRRFRGQREGSRGPRGQRSGGGNKSNRSQNKGQKRSFSKAFGQ
# B2: CRKL; sequence looked up; chain MSSARFDSSDRSAWYMGPVSRQEAQTRLQGQRHGMFLVRDSSTCPGDYVLSVSENSRVSHYIINSLPNRRFKIGDQEFDHLPALLEFYKIHYLDTTTLIEPAPRYPSPPMGSVSAPNLPTAEDNLEYVRTLYDFPGNDAEDLPFKKGEILVIIEKPEEQWWSARNKDGRVGMIPVPYVEKLVRSSPHGKHGNRNSNSYGIPEPAHAYAQPQTTTPLPAVSGSPGAAITPLPSTQNGPVFAKAIQKRVPCAYDKTALALEVGDIVKVTRMNINGQWEGEVNGRKGLFPFTHVKIFDPQNPDENE
# B3: CDC5L; sequence looked up; chain MPRIMIKGGVWRNTEDEILKAAVMKYGKNQWSRIASLLHRKSAKQCKARWYEWLDPSIKKTEWSREEEEKLLHLAKLMPTQWRTIAPIIGRTAAQCLEHYEFLLDKAAQRDNEEETTDDPRKLKPGEIDPNPETKPARPDPIDMDEDELEMLSEARARLANTQGKKAKRKAREKQLEEARRLAALQKRRELRAAGIEIQKKRKRKRGVDYNAEIPFEKKPALGFYDTSEENYQALDADFRKLRQQDLDGELRSEKEGRDRKKDKQHLKRKKESDLPSAILQTSGVSEFTKKRSKLVLPAPQISDAELQEVVKVGQASEIARQTAEESGITNSASSTLLSEYNVTNNSVALRTPRTPASQDRILQEAQNLMALTNVDTPLKGGLNTPLHESDFSGVTPQRQVVQTPNTVLSTPFRTPSNGAEGLTPRSGTTPKPVINSTPGRTPLRDKLNINPEDGMADYSDPSYVKQMERESREHLRLGLLGLPAPKNDFEIVLPENAEKELEEREIDDTYIEDAADVDARKQAIRDAERVKEMKRMHKAVQKDLPRPSEVNETILRPLNVEPPLTDLQKSEELIKKEMITMLHYDLLHHPYEPSGNKKGKTVGFGTNNSEHITYLEHNPYEKFSKEELKKAQDVLVQEMEVVKQGMSHGELSSEAYNQVWEECYSQVLYLPGQSRYTRANLASKKDRIESLEKRLEINRGHMTTEAKRAAKMEKKMKILLGGYQSRAMGLMKQLNDLWDQIEQAHLELRTFEELKKHEDSAIPRRLECLKEDVQRQQEREKELQHRYADLLLEKETLKSKF
# B4: CYR61; sequence looked up; chain TCPAACHCPLEAPKCAPGVGLVRDGCGCCKVCAKQLNEDCSKTQPCDHTKGLECNFGASSTALKGICRAQSEGRPCEYNSRIYQNGESFQPNCKHQCTCIDGAVGCIPLCPQELSLPNLGCPNPRLVKVTGQCCEEWVCDEDSIKDPMEDQDGLLGKELGFDASEVELTRNNELIAVGKGSSLKRLPVFGMEPRILYNPLQGQKCIVQTTSWSQCSKTCGTGISTRVTNDNPECRLVKETRICEVRPCGQPVYSSLKKGKKCSKTKKSPEPVRFTYAGCLSVKKYRPKYCGSCVDGRCCTPQLTRTVKMRFRCEDGETFSKNVMMIQSCKCNYNCPHANEAAFPFYRLFNDIHKFRD
# B5: AIFM2 (ferroptosis suppressor protein 1); sequence looked up; chain GSQVSVESGALHVVIVGGGFGGIAAASQLQALNVPFMLVDMKDSFHHNVAALRASVETGFAKKTFISYSVTFKDNFRQGLVVGIDLKNQMVLLQGGEALPFSHLILATGSTGPFPGKFNEVSSQQAAIQAYEDMVRQVQRSRFIVVVGGGSAGVEMAAEIKTEYPEKEVTLIHSQVALADKELLPSVRQEVKEILLRKGVQLLLSERVSNLEELPLNEYREYIKVQTDKGTEVATNLVILCTGIKINSSAYRKAFESRLASSGALRVNEHLQVEGHSNVYAIGDCADVRTPKMAYLAGLHANIAVANIVNSVKQRPLQAYKPGALTFLLSMGRNDGVGQISGFYVGRLMVRLTKSRDLFVSTSWKTMRQSPP
Molecule,tested on,test,test system,setting,how to read,endpoint,value
KISEYRHYC,Ca-Ski (HLA-A2+ HPV+),111In release,peptide,"concentration not given, 16 h, E:T 25:1 IVS 5, with: peptide-generated T-cell line",,specific lysis,45.1%
cucurbitacin B,MP41 (BAP1-wild-type uveal melanoma),"cell viability, CellTiter-Glo",,72 h,,IC50,0.0484 µM
oseltamivir carboxylate,Influenza B virus,"viral replication, MTS",MDCK,,,EC50,6.5 µM
TLHEYMLDV,ASPC1 (HLA-A2− HPV−),111In release,peptide,"concentration not given, 16 h, E:T 25:1, IVS 5, with: peptide-generated T-cell line",,specific lysis,0.6%
B1 (DDX21),,"peptide binding, SILAC pull-down",,concentration not given,reference: non-acetylated over acetylated NIT1 peptide,log2 fold change,-0.283
GWTLNSAGYLLGPHAVDNHRSFNDKHGFT-NH2 (C-amide),,,"peptide, mouse, DSS-induced colitis","ip, 0.75 µM",,colon length,5.2 cm and 5.4 cm and 5 cm and 4.6 cm and 4.8 cm
cisplatin,MRC-5,cell viability,,,,IC50,7 ± 1 µM
NQRRQRKRR,Mamu-B*08301 MHC class I,peptide binding,"peptide, Chinese rhesus macaque",,,IC50,> 20 µM
hexaarginine,PorA peptide pore,"peptide binding, planar bilayer single-channel recording",,"0.5 µM, pH 7.4, +5 mV, trans side, 150 mM KCl",,kon,3.33e+07 ± 3.5e+06 M⁻¹ s⁻¹
aspterric acid,,hypocotyl length,Arabidopsis thaliana Col-0 seeds,3.125 µg/mL,,inhibition,22.6%
DnaJ homolog DNAJB6,,"peptide binding, SILAC pull-down",,concentration not given,reference: non-acetylated over acetylated NIT1 peptide,log2 fold change,-0.337
nonaarginine,PorA peptide pore,"peptide binding, planar bilayer single-channel recording",,"0.5 µM, pH 7.4, +20 mV, trans side, 150 mM KCl",,kon,1.3e+07 ± 1e+06 M⁻¹ s⁻¹
oseltamivir carboxylate,Influenza A virus H1N1,"cytopathic effect, visual CPE score",MDCK,,,EC50,1.5 µM
mitragynine,,substrate,human liver S9,"10 min, 2",,Vmax,0.0992 nmol/min/mg protein
ANKHD1,,"peptide binding, SILAC pull-down",,concentration not given,reference: non-acetylated over acetylated NIT1 peptide,log2 fold change,0.00159
pertussis toxin,,"immunostaining, item: p-PKC","humanized UT (+/h+) mice, SAH model, middle cerebral artery",dose not given,,phospho-PKC level,21.1 MFI and 15.1 MFI and 16.7 MFI
B2 (CRKL),,"peptide binding, SILAC pull-down",,concentration not given,reference: non-acetylated over acetylated NIT1 peptide,log2 fold change,-0.258
QLYNKPLCDV,Ca-Ski (HLA-A2+ HPV+),111In release,peptide,"concentration not given, 16 h, E:T 25:1 IVS 5, with: peptide-generated T-cell line",,specific lysis,49.1%
B3 (CDC5L),,"peptide binding, SILAC pull-down",,concentration not given,reference: non-acetylated over acetylated NIT1 peptide,log2 fold change,-1.99
fengycin,,calcein leakage,DOPC/DOPG/CHOL liposomes,"concentration not given, with: 20 wt% PEG-8000",,leakage time constant,15 ± 2 min
KGCRCLGEG,Mamu-B*08301 MHC class I,peptide binding,"peptide, Chinese rhesus macaque",,,IC50,> 20 µM
colistin,Aspergillus fumigatus,,"pkcA G579R, solid minimal medium","20 µM, 4 days, 37 °C",reference: untreated,radial growth ratio,0.936 and 0.9 and 0.947
B4 (CYR61),,"peptide binding, SILAC pull-down",,concentration not given,reference: non-acetylated over acetylated NIT1 peptide,log2 fold change,-0.411
VPGFQALSE,Mamu-A1*02601 MHC class I,peptide binding,"peptide, Chinese rhesus macaque",,,IC50,> 20 µM
(−)-antroquinonol A,ASPC1,"cytotoxicity, MTS",,72 h,,IC50,> 25 µM
QQYNKPLCDL,Ca-Ski (HLA-A2+ HPV+),111In release,peptide,"concentration not given, 16 h, E:T 25:1 IVS 5, with: peptide-generated T-cell line",,specific lysis,38.1%
B5 (AIFM2),,"peptide binding, SILAC pull-down",,concentration not given,reference: non-acetylated over acetylated NIT1 peptide,log2 fold change,0.512
GWTLNSAGYLLGPRRIDHLLMIKEMPIARGREEAPGA / YAVDNHRSFNDKHGFT-NH2 (C-amide),,,"female mice, DSS-induced colitis","ip, 3 µM",,colon length,7.4 cm and 7.2 cm and 7.8 cm and 7.5 cm and 7.3 cm
cofilin-1,,"peptide binding, SILAC pull-down",,concentration not given,reference: non-acetylated over acetylated NIT1 peptide,log2 fold change,-0.442
insulin human,,item: RIMS1 mRNA,"uninfected mouse, brain","i.p., dose not given",reference: PBS,fold change,1.41

# A few entries again:
Molecule,tested on,test,test system,setting,how to read,endpoint,value
DnaJ homolog DNAJB6,,"peptide binding, SILAC pull-down",,concentration not given,reference: non-acetylated over acetylated NIT1 peptide,log2 fold change,-0.337
nonaarginine,PorA peptide pore,"peptide binding, planar bilayer single-channel recording",,"0.5 µM, pH 7.4, +20 mV, trans side, 150 mM KCl",,kon,1.3e+07 ± 1e+06 M⁻¹ s⁻¹
oseltamivir carboxylate,Influenza A virus H1N1,"cytopathic effect, visual CPE score",MDCK,,,EC50,1.5 µM
mitragynine,,substrate,human liver S9,"10 min, 2",,Vmax,0.0992 nmol/min/mg protein
ANKHD1,,"peptide binding, SILAC pull-down",,concentration not given,reference: non-acetylated over acetylated NIT1 peptide,log2 fold change,0.00159
